Experimental data pooled from the literature.
Parts stem from different laboratories: compare values within a part only.
Sequence of UniProt P14416 (whole entry, looked up): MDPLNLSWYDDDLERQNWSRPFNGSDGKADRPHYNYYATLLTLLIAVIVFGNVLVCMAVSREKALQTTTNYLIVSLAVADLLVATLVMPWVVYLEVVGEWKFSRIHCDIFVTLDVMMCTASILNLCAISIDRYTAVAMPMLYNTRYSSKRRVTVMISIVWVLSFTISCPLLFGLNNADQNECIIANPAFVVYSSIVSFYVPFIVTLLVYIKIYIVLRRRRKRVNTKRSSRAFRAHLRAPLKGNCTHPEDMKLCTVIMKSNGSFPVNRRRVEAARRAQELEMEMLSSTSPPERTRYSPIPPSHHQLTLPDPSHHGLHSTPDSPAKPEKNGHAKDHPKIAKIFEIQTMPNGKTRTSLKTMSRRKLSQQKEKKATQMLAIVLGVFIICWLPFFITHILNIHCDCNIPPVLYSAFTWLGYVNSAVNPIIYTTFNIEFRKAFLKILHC
Sequence of UniProt P38919 (whole entry, looked up): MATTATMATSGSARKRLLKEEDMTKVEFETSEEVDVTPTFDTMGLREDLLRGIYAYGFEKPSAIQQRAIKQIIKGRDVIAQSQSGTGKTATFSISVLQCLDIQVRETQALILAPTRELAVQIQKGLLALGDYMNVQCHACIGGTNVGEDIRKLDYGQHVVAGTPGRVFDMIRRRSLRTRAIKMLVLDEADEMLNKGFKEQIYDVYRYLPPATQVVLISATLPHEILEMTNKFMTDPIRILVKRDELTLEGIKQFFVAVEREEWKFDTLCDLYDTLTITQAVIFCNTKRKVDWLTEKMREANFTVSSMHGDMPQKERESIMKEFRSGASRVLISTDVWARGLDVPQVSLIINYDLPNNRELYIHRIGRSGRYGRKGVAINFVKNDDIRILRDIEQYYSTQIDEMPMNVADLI

Study 1 — target: Sox-I, HMG box (Salpingoeca helianthica); technique: Spec-seq; form: double-stranded DNA, one strand shown; sample: in vitro; tested at: not given; setting: whole probe, mean of replicates; relative to: not given; reading: lower = stronger binding; all sequences stand within: GAGTCGTCTCGTCAGCAC … CCGTAGAGCACTCAGGTC
Target sequence (chain): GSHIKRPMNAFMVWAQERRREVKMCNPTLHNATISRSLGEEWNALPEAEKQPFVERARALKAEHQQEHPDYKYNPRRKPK
| Strand | relative binding energy [ln ratio] |
| --- | --- |
| CATCGCC | 1.08 |
| CATGTAA | 0.744 |
| ACATGTT | -0.642 |
| CATCTCC | 1.11 |
| ACCGGTT | 0.00363 |
| AAGCGTT | 0.185 |
| CATTTAA | 0.533 |
| ATGTGTT | -0.0522 |

Study 2 — technique: universal PBM; form: double-stranded DNA, one strand shown; sample: in vitro; tested at: not given; reading: higher = stronger binding
Target: Sal-like protein 4, full length isoform B (SALL4, Homo sapiens, UniProt Q9UJQ4-2, residues 1-616)
Setting: 8-mer, flanks averaged, mean of replicates
Target sequence (chain): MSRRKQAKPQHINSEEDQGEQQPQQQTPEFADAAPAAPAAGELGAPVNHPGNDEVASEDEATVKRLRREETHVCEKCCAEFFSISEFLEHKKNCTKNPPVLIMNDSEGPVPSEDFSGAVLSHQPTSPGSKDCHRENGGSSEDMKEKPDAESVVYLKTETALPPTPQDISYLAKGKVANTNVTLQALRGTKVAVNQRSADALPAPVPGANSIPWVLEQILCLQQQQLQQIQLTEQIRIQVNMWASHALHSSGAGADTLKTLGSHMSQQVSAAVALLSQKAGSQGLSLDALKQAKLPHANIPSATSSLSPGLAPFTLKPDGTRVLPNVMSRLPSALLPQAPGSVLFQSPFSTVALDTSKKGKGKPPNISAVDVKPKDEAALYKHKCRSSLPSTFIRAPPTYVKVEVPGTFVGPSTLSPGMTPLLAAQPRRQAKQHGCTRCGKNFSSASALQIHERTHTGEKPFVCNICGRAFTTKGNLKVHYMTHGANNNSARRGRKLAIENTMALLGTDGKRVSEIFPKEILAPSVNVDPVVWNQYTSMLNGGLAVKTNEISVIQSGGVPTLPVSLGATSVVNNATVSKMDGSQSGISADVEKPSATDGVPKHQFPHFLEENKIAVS
| Strand | E-score |
| --- | --- |
| AGCTAATC | 0.0471 |
| AAGTACCC | -0.107 |
| AAAAGGGC | 0.0137 |
| CGCGCCTA | -0.0471 |
| CACTACTA | 0.0547 |
| ACTAGAAC | 0.121 |
| ATAGGTCG | -0.012 |
| CGAAGAGA | 0.0992 |

Study 3 — read-out: binding; technique: phage display NGS; form: peptide; setting: panning round 2; relative to: input library
Target: UDP-N-acetylglucosamine--peptide N-acetylglucosaminyltransferase 110 kDa subunit (OGT, Homo sapiens, UniProt O15294)
Sequence of UniProt O15294 (whole entry, looked up): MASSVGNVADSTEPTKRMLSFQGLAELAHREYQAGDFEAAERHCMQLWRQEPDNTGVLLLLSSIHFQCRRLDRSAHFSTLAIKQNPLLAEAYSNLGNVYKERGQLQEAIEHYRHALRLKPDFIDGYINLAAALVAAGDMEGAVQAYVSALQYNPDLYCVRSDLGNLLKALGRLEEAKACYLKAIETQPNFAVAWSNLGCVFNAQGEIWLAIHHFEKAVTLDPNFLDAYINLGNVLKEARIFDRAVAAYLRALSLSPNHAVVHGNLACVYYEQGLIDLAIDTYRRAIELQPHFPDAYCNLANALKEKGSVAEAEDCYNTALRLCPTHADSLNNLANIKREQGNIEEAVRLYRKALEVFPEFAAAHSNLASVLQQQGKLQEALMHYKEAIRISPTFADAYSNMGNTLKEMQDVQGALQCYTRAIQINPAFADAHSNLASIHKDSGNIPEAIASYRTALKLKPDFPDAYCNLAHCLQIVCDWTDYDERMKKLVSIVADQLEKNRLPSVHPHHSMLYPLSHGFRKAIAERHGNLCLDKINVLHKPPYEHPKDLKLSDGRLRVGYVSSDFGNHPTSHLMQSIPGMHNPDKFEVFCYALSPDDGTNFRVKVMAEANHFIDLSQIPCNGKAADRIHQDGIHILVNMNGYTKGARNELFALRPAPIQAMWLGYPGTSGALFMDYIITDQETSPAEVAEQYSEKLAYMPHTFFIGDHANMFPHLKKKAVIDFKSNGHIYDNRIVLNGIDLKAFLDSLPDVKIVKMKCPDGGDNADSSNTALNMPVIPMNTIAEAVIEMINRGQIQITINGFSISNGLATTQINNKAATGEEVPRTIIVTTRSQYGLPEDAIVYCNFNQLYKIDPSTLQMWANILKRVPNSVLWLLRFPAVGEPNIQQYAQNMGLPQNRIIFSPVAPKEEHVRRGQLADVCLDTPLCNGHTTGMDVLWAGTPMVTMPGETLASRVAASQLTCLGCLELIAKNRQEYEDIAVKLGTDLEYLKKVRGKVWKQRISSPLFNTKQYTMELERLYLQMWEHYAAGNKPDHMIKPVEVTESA
| Sequence | minimum log2 enrichment ratio |
| --- | --- |
| VVPHMMHQWEHHHA | 4.3 |
| YMPQYQIMAQDKKV | 1.54 |
| VRQHHHQNAGWHMYH | 2.64 |
| RTFFPMYEIVIGMT | 2.88 |
| SDRTPYTPRYQISY | 2.97 |
| WVLVPPFYQIVPSNR | 6.95 |
| HLTMGHSRTDDSRNH | 2.58 |
| HYDHQHRFPQLAKSA | 2.02 |
| YGPHNHFHPHDHMP | 2.56 |
| SHMESHANNHHRAHW | 2.33 |
| MWSPTVPPKYIIKYK | 2.97 |
| TYRHHNHHPLGEADV | 3.55 |
| YRHPPWDHHLDHHGR | 2.46 |
| TNMYRYPTHAHFQIK | 2.1 |
| HSWDHIWHTTYDNDK | 2.38 |
| SYVHHPPHWWDKHVS | 2.62 |
| HQIPVLLHHSHTRNI | 2.62 |

Single results of other studies
| Compound | target | test | conditions | quantity | value |
| --- | --- | --- | --- | --- | --- |
| COC(=O)[C@@H]1[C@@H](c2ccccc2)[C@]2(c3ccc(Br)cc3)Oc3cc(OC)cc(OC)c3[C@@]1(O)C2(O)O | Eukaryotic initiation factor 4A-III (Homo sapiens, UniProt P38919) | RNA clamping, fluorescence polarization | concentration not given, with: FAM-labelled poly r(AG)8 RNA | fluorescence polarization change | -1.9 mP |
| CNC(=O)c1cc(C(=O)NC2CC2)cn(Cc2ccccc2)c1=O | D(2) dopamine receptor (DRD2, Homo sapiens, UniProt P14416) | binding, radioligand binding | 10 µM | inhibition | -2.98% |

Repeated from above (study 3):
| Sequence | minimum log2 enrichment ratio |
| --- | --- |
| SHMESHANNHHRAHW | 2.33 |
| MWSPTVPPKYIIKYK | 2.97 |
| TYRHHNHHPLGEADV | 3.55 |
| YRHPPWDHHLDHHGR | 2.46 |
